Results collected from several papers.
Parts stem from different laboratories: compare values within a part only. Numbers after ± are the reported error.
Chain of UniProt O42275 (whole entry, looked up): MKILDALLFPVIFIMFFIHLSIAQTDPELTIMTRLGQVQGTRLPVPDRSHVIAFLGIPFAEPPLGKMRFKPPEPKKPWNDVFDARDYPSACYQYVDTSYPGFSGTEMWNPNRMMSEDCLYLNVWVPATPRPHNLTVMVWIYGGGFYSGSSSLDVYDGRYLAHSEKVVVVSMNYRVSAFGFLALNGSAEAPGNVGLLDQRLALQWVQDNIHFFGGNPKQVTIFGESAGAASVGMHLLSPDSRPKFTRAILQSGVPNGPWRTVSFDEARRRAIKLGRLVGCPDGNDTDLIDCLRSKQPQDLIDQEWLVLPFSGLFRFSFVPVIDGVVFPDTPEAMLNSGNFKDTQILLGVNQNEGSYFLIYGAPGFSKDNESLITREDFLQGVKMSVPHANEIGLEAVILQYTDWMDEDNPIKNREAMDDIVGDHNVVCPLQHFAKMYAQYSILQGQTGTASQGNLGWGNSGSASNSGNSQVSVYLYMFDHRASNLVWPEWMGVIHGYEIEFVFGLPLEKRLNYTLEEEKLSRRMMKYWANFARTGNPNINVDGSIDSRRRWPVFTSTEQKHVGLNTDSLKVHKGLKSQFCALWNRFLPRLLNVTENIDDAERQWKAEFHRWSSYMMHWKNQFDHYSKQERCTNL
Chain of UniProt P34914 (whole entry, looked up): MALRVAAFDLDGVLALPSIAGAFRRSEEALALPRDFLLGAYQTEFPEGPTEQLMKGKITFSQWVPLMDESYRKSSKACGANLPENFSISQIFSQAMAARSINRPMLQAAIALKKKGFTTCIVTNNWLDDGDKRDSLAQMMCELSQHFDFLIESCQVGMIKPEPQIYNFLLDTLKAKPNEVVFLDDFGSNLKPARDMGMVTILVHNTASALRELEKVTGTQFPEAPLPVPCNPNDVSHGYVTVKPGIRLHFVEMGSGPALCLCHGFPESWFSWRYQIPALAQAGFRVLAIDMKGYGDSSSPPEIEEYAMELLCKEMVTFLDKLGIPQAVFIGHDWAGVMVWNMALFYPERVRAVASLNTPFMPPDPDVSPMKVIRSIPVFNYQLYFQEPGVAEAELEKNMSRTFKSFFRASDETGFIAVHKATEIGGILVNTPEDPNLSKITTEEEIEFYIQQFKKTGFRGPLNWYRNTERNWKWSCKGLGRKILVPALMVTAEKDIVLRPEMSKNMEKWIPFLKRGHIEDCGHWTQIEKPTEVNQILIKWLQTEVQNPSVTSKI

Sample 1 — endpoint: GI50
Structure (SMILES): Cc1cc(OCc2nnc(SC3CCCC3)n2-c2cccnc2)ccc1-c1ccc(S(C)(=O)=O)cc1
SK-OV-3: 3450 nM
HT-29: 1890 nM
A498: 276 nM

Further values, each from its own experiment
pyc (Rhizobium etli, UniProt Q2K340) — kcat/Km (CC(=O)OP(=O)(O)O; steady-state kinetics; pH 7.5, 25 °C): 28.3 ± 0.833 M⁻¹ s⁻¹
O=C(Nc1ccc(-c2cnc3ccccc3c2)cc1)C1CCN(Cc2cccnc2)CC1 — IC50 (Acetylcholinesterase (ache, Electrophorus electricus, UniProt O42275)): > 10000 nM
O=C(Nc1cc(F)cc(F)c1)NC1CCN(c2c(NS(=O)(=O)Cc3ccccc3)c(=O)c2=O)CC1 — IC50 (Bifunctional epoxide hydrolase 2 (Ephx2, Mus musculus, UniProt P34914)): 1200 ± 140 nM

Some of these lines once more (further values, each from its own experiment):
O=C(Nc1cc(F)cc(F)c1)NC1CCN(c2c(NS(=O)(=O)Cc3ccccc3)c(=O)c2=O)CC1 — IC50 (Bifunctional epoxide hydrolase 2 (Ephx2, Mus musculus, UniProt P34914)): 1200 ± 140 nM
